# Assay results from different studies.
# Compare with care: the assays were run in different laboratories.
# Organism: Bacillus subtilis
SMILES,assay,test system,conditions,MIC
CN[C@H](CC(C)C)C(=O)N[C@H]1C(=O)N[C@@H](CC(N)=O)C(=O)N[C@H]2C(=O)N[C@H]3C(=O)N[C@H](C(=O)N[C@H](C(=O)NCc4cn(CC(=O)N[C@H](C(=O)N[C@@H](CCN)C(=O)N[C@H]5CCNC(=O)[C@H]([C@@H](C)O)NC(=O)[C@H](CCN)NC(=O)[C@H](CCN)NC(=O)[C@H](CC(C)C)NC(=O)[C@@H](CC(C)C)NC(=O)[C@H](CCN)NC5=O)[C@@H](C)O)nn4)c4cc(O)cc(O)c4-c4cc3ccc4O)[C@H](O)c3ccc(c(Cl)c3)Oc3cc2cc(c3O[C@@H]2O[C@H](CO)[C@@H](O)[C@H](O)[C@H]2O[C@H]2C[C@](C)(N)[C@H](O)[C@H](C)O2)Oc2ccc(cc2Cl)[C@H]1O,broth microdilution,"168, cation-adjusted Mueller-Hinton broth",,0.2 µM
CC[C@H](C)[C@H](NC(=O)[C@@H](CCC(=O)O)NC(=O)[C@H](CC(C)C)NC(=O)c1cccc(C(=O)O)n1)C(=O)N[C@H]1CCCCNC(=O)[C@H](CC(N)=O)NC(=O)[C@@H](CC(=O)O)NC(=O)[C@H](Cc2c[nH]cn2)NC(=O)[C@@H](Cc2ccccc2)NC(=O)[C@H]([C@@H](C)CC)NC(=O)[C@@H](CCCN)NC1=O,,168,"18 h, 37 °C, 0.3 mM ZnSO4 LB",> 64 µg/mL
CC(=O)N[C@@H](CC(C)C)C(=O)N[C@H]1CSSC[C@@H](C(=O)N2CCC[C@H]2C(N)=O)NC(=O)[C@H]([C@@H](C)O)NC(=O)[C@H](C(C)C)NC(=O)[C@H]([C@@H](C)O)NC(=O)CNC(=O)[C@H](CC(C)C)NC(=O)[C@H](Cc2ccccc2)NC(=O)[C@H](Cc2ccc(O)cc2)NC(=O)[C@H](CC(C)C)NC(=O)[C@H](CCCCN)NC(=O)[C@H](Cc2ccccc2)NC(=O)[C@H](CCCNC(=N)N)NC(=O)[C@H](CCC(N)=O)NC(=O)[C@H](CC(C)C)NC(=O)[C@H](CCCCN)NC(=O)[C@@H]2CCCN2C(=O)[C@H](CCCCN)NC(=O)[C@H](C(C)C)NC(=O)[C@H](CCCCN)NC(=O)[C@H](Cc2ccc(O)cc2)NC(=O)[C@H]([C@@H](C)O)NC1=O,broth dilution,CGMCC strain,24 h,< 1.25 µM
CCCCCCCCCc1nc2cc(Cl)ccc2c(=O)n1CCN,,168,,12.5 µM
O=C(c1ccccc1O)c1[nH]c(Cl)c(Cl)c1-n1c(C(=O)c2ccccc2O)cc(Cl)c1Cl,microbial growth,ATCC6051,,0.25 µM
CC[C@H](C)[C@@H]1NC(=O)[C@@H]2CCCN2C(=O)[C@H](C)NC(=O)[C@H](CC(C)C)NC(=O)[C@@H]2CCCN2C(=O)[C@H](C)NC(=O)[C@@H]2CSSC[C@H](NC(=O)[C@H](C)NC(=O)[C@H](C)NC(=O)[C@H](Cc3ccc(O)cc3)NC(=O)[C@@H]3CCCN3C(=O)CNC(=O)[C@H](Cc3c[nH]c4ccccc34)NC1=O)C(=O)N[C@@H](CC(C)C)C(=O)N[C@@H](CO)C(=O)N[C@@H](C)C(=O)N[C@H]1CSSC[C@H](NC(=O)[C@H](C(C)C)NC(=O)[C@@H]3CCCN3C(=O)CNC(=O)CNC(=O)CNC(=O)[C@H](C)NC(=O)[C@H](C)NC(=O)[C@H](CC(C)C)NC1=O)C(=O)N[C@@H](CC(C)C)C(=O)N[C@@H](C)C(=O)N[C@@H](C(C)C)C(=O)N2,,ATCC 6633,,> 128 µg/mL
C#CCOc1ccc(CN[C@@]2(C)C[C@H](O[C@H]3[C@H](Oc4c5cc6cc4Oc4ccc(cc4Cl)[C@@H](O)[C@@H](NC(=O)[C@@H](CC(C)C)NC)C(=O)N[C@@H](CC(N)=O)C(=O)N[C@H]6C(=O)N[C@H]4C(=O)N[C@H](C(=O)N[C@H](C(=O)N[C@@H](CCCNC(=N)N)C(N)=O)c6cc(O)cc(O)c6-c6cc4ccc6O)[C@H](O)c4ccc(c(Cl)c4)O5)O[C@H](CO)[C@@H](O)[C@@H]3O)O[C@@H](C)[C@H]2O)cc1OC,broth microdilution,"168, cation-adjusted Mueller-Hinton broth",,0.009 µM
CC(C)C[C@H](NC(=O)[C@@H](NC(=O)[C@H](CCCNC(=N)N)NC(=O)[C@H](CCC(N)=O)NC(=O)[C@H](Cc1ccccc1)NC(=O)[C@H](Cc1ccc(O)cc1)NC(=O)[C@H](CC(N)=O)NC(=O)[C@H](Cc1c[nH]c2ccccc12)NC(=O)[C@@H](NC(=O)[C@H](CCCNC(=N)N)NC(=O)[C@H](CCCCN)NC(=O)[C@@H](N)Cc1ccccc1)C(C)C)C(C)C)C(=O)N[C@H](C(=O)N[C@@H](CCCCN)C(=O)N[C@@H](CCCCN)C(=O)N[C@@H](Cc1ccc(O)cc1)C(N)=O)C(C)C,broth dilution,KCTC 3068,,< 3.1 µM
CN[C@H](CC(C)C)C(=O)N[C@H]1C(=O)N[C@@H](CC(N)=O)C(=O)N[C@H]2C(=O)N[C@H]3C(=O)N[C@H](C(=O)N[C@H](C(=O)NCc4cn(CCCCC(=O)N[C@H](C(=O)N[C@@H](CCN)C(=O)N[C@H]5CCNC(=O)[C@H]([C@@H](C)O)NC(=O)[C@H](CCN)NC(=O)[C@H](CCN)NC(=O)[C@H](CC(C)C)NC(=O)[C@@H](CC(C)C)NC(=O)[C@H](CCN)NC5=O)[C@@H](C)O)nn4)c4cc(O)cc(O)c4-c4cc3ccc4O)[C@H](O)c3ccc(c(Cl)c3)Oc3cc2cc(c3O[C@@H]2O[C@H](CO)[C@@H](O)[C@H](O)[C@H]2O[C@H]2C[C@](C)(N)[C@H](O)[C@H](C)O2)Oc2ccc(cc2Cl)[C@H]1O,broth microdilution,"168, cation-adjusted Mueller-Hinton broth",,0.098 µM
CC(=O)N[C@@H](CC(C)C)C(=O)N[C@H]1CSSC[C@@H](C(=O)N2CCC[C@H]2C(N)=O)NC(=O)[C@H](CCCCN)NC(=O)[C@H](C(C)C)NC(=O)[C@H](CCCCN)NC(=O)CNC(=O)[C@H](CC(C)C)NC(=O)[C@H](Cc2ccccc2)NC(=O)[C@H](CCCCN)NC(=O)[C@H](CC(C)C)NC(=O)[C@H](CCC(=O)O)NC(=O)[C@H](Cc2ccccc2)NC(=O)[C@H](CCCNC(=N)N)NC(=O)[C@H](CCCCN)NC(=O)[C@H](CC(C)C)NC(=O)[C@H](CC(=O)O)NC(=O)[C@@H]2CCCN2C(=O)[C@H](CCCCN)NC(=O)[C@H](C(C)C)NC(=O)[C@H](CCCCN)NC(=O)[C@H](CCCCN)NC(=O)[C@H](CCCCN)NC1=O,broth dilution,CGMCC strain,24 h,< 1.25 µM

# Repeated from above:
SMILES,assay,test system,conditions,MIC
CC[C@H](C)[C@H](NC(=O)[C@@H](CCC(=O)O)NC(=O)[C@H](CC(C)C)NC(=O)c1cccc(C(=O)O)n1)C(=O)N[C@H]1CCCCNC(=O)[C@H](CC(N)=O)NC(=O)[C@@H](CC(=O)O)NC(=O)[C@H](Cc2c[nH]cn2)NC(=O)[C@@H](Cc2ccccc2)NC(=O)[C@H]([C@@H](C)CC)NC(=O)[C@@H](CCCN)NC1=O,,168,"18 h, 37 °C, 0.3 mM ZnSO4 LB",> 64 µg/mL
